Experimental data pooled from the literature.
Each numbered part is a random draw from the data of one study; scales do not carry over between parts. Substitutions count along the parent as printed.

Sample 1
Target: ABI1, truncated, D143A, DHFR fusion (Arabidopsis thaliana)
Technique: DHFR PCA, deep sequencing
Medium: yeast
Notes: methotrexate growth selection, single substitutions
Added: (+)-ABA 4.8 µM
Reference: wild-type fitted maximum
Reading: higher = stronger binding
Parent: PYL1, truncated, DHFR fusion (Arabidopsis thaliana); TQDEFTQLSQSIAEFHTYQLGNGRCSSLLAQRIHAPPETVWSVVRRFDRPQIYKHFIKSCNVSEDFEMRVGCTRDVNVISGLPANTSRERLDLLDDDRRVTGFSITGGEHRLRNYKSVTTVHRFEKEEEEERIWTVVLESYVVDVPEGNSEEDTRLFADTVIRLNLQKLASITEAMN
Variant | relative binding score
V100T | 14%
T119H | 2.24%
K168R | 68.7%
N165K | 1.26%
Q10G | 78.6%
Q10P | 68.9%
P37V | 63.5%
T86S | 78.4%
A175P | 35%
V100F | 5.55%
K116R | 76.3%
P37E | 30.2%
T154M | 24.5%
A13F | 48.2%
G23V | 10.3%
N165Q | -0.633%
E130C | 72.3%
Q51R | 22.8%
Y53Q | -9.02%
T39C | 63%
G108I | -5.46%
R113Q | 87.3%
K54E | -2.31%
D75K | 70.6%
R69K | 80.2%

Sample 2
Target: CCND1, cyclin fold, Cln2 fusion (human)
Technique: yeast growth competition, sequencing
Medium: yeast
Notes: weak parent motif
Reference: not given
Reading: higher = stronger binding
Parent: BORA docking peptide (human); SSLRRKLFLDGNG; partner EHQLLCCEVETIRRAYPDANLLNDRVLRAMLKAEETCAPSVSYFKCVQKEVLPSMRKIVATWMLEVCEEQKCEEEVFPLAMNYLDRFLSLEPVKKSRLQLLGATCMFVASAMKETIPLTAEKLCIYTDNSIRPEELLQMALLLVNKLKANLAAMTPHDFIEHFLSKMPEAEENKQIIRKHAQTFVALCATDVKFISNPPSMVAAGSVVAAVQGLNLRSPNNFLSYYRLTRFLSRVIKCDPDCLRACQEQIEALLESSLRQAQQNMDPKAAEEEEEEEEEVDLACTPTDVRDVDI
Variant | normalised enrichment score
K6A | 0.148
R5K F8L | 0.0986
S1A | 0.155
R5A L7A | -0.236
G13A | 0.1
N12A | 0.769
G11A | 0.322
L9F | 0.468
L3A | 0.649
R4A | 0.134
F8L | 0.241

Sample 3
Target: CEBPE, bZIP domain (human)
Technique: DHFR protein complementation
Medium: yeast
Notes: single substitutions, most at no-binding floor
Reference: wild-type JUN-FOS pair
Reading: higher = stronger binding
Parent: JUN, bZIP domain (human); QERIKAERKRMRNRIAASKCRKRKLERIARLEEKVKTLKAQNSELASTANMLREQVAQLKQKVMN; partner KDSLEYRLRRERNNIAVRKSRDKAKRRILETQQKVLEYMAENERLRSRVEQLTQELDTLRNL
Variant | binding fitness [natural log]
A29S | -1.15
A46S | -1.2
L38H | -1.45
I28K | -1.29
E32L | -1.36
N42G | -1.44
A49I | -1.09
E44T | -1.3
Q41S | -1.61
L45S | -1.55
S43Y | -1.26
K34F | -1.19
I28R | -1.24
Q55N | -1.47
N42C | -1.41
Q41V | -1.29
Q41D | -1.3

Sample 4
Molecule: STUB1 RING domain (UniProt Q9UNE7)
Technique: yeast two-hybrid
Medium: yeast
Notes: mostly zero background
Reference: not given
Reading: higher = stronger interaction
target | lacZ reporter activity
UBE2Z UBC core domain (UniProt Q9H832) | 3210
UBE2T UBC core domain (UniProt Q9NPD8) | 0
UBE2M UBC core domain (UniProt P61081) | 0
UBE2B UBC core domain (UniProt P63146) | 0
UBE2R2 UBC core domain (UniProt Q712K3) | 0
UBE2J1 UBC core domain (UniProt Q9Y385) | 0
UBE2J2 UBC core domain (UniProt Q8N2K1) | 2160
UBE2Q1 UBC core domain (UniProt Q7Z7E8) | 0
UBE2C UBC core domain (UniProt O00762) | 0
BIRC6 UBC core domain (UniProt Q9NR09) | 0
UBE2O UBC core domain (UniProt Q9C0C9) | 0
UBE2I UBC core domain (UniProt P63279) | 0
UBE2D1 UBC core domain (UniProt P51668) | 0
UBE2G1 UBC core domain (UniProt P62253) | 0
UBE2L3 UBC core domain (UniProt P68036) | 0
UBE2S UBC core domain (UniProt Q16763) | 0
UBE2E3 UBC core domain (UniProt Q969T4) | 0

Sample 5
Target: Histone acetyltransferase KAT6A, winged helix 1, GST fusion (KAT6A, Homo sapiens, UniProt Q92794, residues 1-85)
Technique: protein binding microarray
Molecule type: double-stranded DNA, one strand shown
Medium: in vitro
Tested at: not given
Notes: 8-mer, flanks averaged, mean of 2 arrays, mostly near background
Reference: not given
Reading: higher = stronger binding
Construct (chain): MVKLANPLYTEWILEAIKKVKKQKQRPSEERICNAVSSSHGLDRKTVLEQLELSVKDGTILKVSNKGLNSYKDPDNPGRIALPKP
Sequence | E-score
ACTCGGCC | 0.201
ACTAGACA | -0.153
GTTGCACA | -0.165
CTGGGCGC | 0.0599
ACGTTAGA | -0.0971
CTCACTGA | -0.245
AAGCCATC | -0.085
TCATGAAA | -0.115
AATCTAAT | -0.0195
AGGGTACG | -0.0391
AGTATACA | -0.154
GAACATTC | -0.147
CACCTCAC | 0.00743
AGGGCCAA | -0.0953
GCATGGAC | 0.00411
ACCACGAC | -0.136
ACTCGGTC | 0.105
AGTTGGTC | -0.112
ACCTGTTG | -0.149
AGGGGATA | -0.177

Sample 6
Target: RING finger protein unkempt homolog, zinc fingers 1-6, GST-SBP tag (UNK, Homo sapiens, UniProt Q9C0B0, residues 30-357)
Technique: RNA Bind-n-Seq
Molecule type: RNA
Medium: in vitro
Tested at: not given
Notes: RNA with constant flanks, human and mouse sites, ends assumed
Reference: input RNA pool
Reading: higher = stronger binding
All sequences stand within: GGGAGUUCUACAGUCCGACGAUC … CAACAGAGGAUUGAGCAUCA
Construct (chain): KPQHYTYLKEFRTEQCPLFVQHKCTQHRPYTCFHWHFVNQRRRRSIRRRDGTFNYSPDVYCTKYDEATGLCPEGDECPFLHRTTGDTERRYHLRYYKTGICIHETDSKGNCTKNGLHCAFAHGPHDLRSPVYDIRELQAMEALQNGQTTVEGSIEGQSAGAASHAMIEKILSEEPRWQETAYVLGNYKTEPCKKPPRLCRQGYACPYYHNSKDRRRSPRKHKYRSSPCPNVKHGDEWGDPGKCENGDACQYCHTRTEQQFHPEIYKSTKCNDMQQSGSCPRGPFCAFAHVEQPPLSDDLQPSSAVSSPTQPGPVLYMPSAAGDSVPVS
Sequence | bound/input enrichment [ratio]
ACGCAGGAAGAAGUGUCUUCAGAAGAUGAAGAUGAAGAGAUGCCUGAGGAUACAGAAGACCUAGAUCACUAUGAAAUGAAAGAGGAAGAGCCAGCCGAGGGCAAGAAGUCUGAAGAUGAU | 0.856
AAAUACAAGCAAGCUUUACUACAGUAUAAGAAGAUCGUGUCUUGGCUGGAAUAUGAGUCUAGUUUUUCCAAUGAGGAAGCACAGAAAGCACAGGCCCUUCGACUGGCCUCUCACCUCAAC | 0.233
UUCAGUGCCUCAAUUGAUGACAAGGUUGGUAGACAUGUUAAAAUGAUCGACAAUGUCUAUAAUCCUGCAGCCAUUGCUGUUGAUUGGGUGUACAAGACCAUCUACUGGACUGAUGCGGCU | 0.0867
AUCUAUACAACCAUCAACGCCCACCAGUGGUCAGAGACUGUGCAGCCAAUCAUGGAAGCCCUUAGAGAUGCAACAAGGAGACGCGCCUUUGCCCUGGUCUCUCAAGCUUAUACCUCCAUC | 0.296
AAACUCAUCCUUAAAGGGGUCAUACUGCUGAUUGUGGACAAAGCCCUAGAAGAGCCAAAGUAUAGCUCACUGUAUGCUCAGCUAUGUCUGCGAUUGGCAGAAGAUGCACCAAACUUUGAU | 0.147
GUUGCUGAGUAUGACGCCUACUUUGAGGAGGUAAAACAGGAGAUAAAUCAGAGGCUGACACUGAGUGACUUCCUCAUCAAGCCCAUUCAGAGAAUAACAAAAUACCAGUUGCUCCUCAAG | 0.217
UGCAUGCUGCUGUUUGUGUUUGGCUUUGUUGGCGGGGCGGUGGUCAUUAAUUCUGCUAUCUUAGUAUCUCUCUCUGUUUUGCUGCUUGUGCACUUUUCUAUUUCUACCGGUGUGCCAGCU | 0.985
GGGACACAUACUGUAGUAUACUAGUGGGUGGGAGGCAUGGGGGUUAAGAUUGUAUAAACCAUAGAUCCUGUGUAAGUUAGAGUUGUUGCUUACAUUUCAUAUAGAGUCUCACUAUUCAUA | 3.08
CGCGCAGGGAUGGAGGCCUGUCUUGUUCCCGCCAAUUCUCGUGUCAGUCCUGUCCGGGUCUAGUUCUUUACUUCAUGGAGCCAUUUGAUCCUGCGGAGCUGCCGGAGCUACUCAAGCUUU | 0.0326
GUACUUUUAUCAAGGUUUCUCAAAACAUUUACAAAACCAGCUUUGAGAAAAUGUUAUGUUGCCUGGCAACAGCACUCGGAGUAGUAAUUGUGUUUUCUCAUUGUGAUGUUGGUCUGUGUG | 0.528
AUUUUCCUGUGCUCAAUGUGUAAAUUGUAUCAUAACUCAUUGUGGUUGAUUUCACUUUGAUUUAGUGGCAUCUUAAUAAAUGGGGGUGUUACUGAAUCACUCUUCCCACUUCCAUUUCUU | 0.203

Sample 7
Target: RNA binding protein fox-1 homolog 2, RRM domain, GST-SBP tag (RBFOX2, Homo sapiens, UniProt O43251-10, residues 100-194)
Technique: RNA Bind-n-Seq
Molecule type: RNA
Medium: in vitro
Tested at: 365 nM
Notes: natural RNA segment, single round, ends assumed
Reference: no-protein control
Reading: higher = stronger binding
All sequences stand within: GGGAGUUCUACAGUCCGACGAUC … UGGAAUUCUCGGGUGCCAA
Target sequence (chain): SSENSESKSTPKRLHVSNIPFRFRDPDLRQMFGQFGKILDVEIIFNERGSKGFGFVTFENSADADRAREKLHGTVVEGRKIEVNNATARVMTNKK
Sequence | RBNS enrichment (R)
UGCCUCUGUUACUGUUUGUAUUGAAUAAAAACAUCUUCAUGUGGGCUGGGGUAGAAACUGGUGUCUGCUCUGGUGUGAUCUGAAAAGGCGUCUUCACUGCUUUAUCUCAU | 0.728
CUAGGUGCUGCCUUUCUAAGUUCUGACGAGGAGCAGCCCUCAGUGGCUUGUGUACAGAUUGCUCUAUCCCAGAAGCAAGCCUUGGUUUGUUGAAGAGCUUUUCAUGUAUA | 0.369
UUCCUUGGGGAAGAUGCGUGGAGCUGUCCACAGAUAGCCUACCCACUGGAUUGCUACCGCCGUGUGUGGUGUUUUCAUACAAACGUACGUUUUGAGAGAAAAGUCAAAGG | 0.231
AUUCACUUGUUCAUUCAAGUAUUUAUUGAAUACCUGCCUCAAGCUAGAGAGAAAAGAGAGUGCGCUUUGGAAAUUUAUUCCAGUUUUCAGCCUACAGCAGAUUAUCAGCU | 0.318
GUUGGAGUGCAGUGGCACGAUCUCGGCUCACUGCAACCUCACCUCCCGGGUUCAAGAGAUCCUCCUGCCUCAGCCUCCUGAGCAGCUGGGACUACAGGCGCAUGCCACCA | 1.64
GUCAUUUGUUUUUGUUUUAAGUGCUUUUGGGAUUUUAAACUGAUAGCCUCAAACUCCAAACACCAUAGGUAGGACACGAAGCUUAUCUGUGAUUCAAAACAAAGGAGAUA | 0.413
GUGUUUGCAUGAGUGUGUGUAGCUUCAUGCUUUGGGAGUUGGCAAGAGGAAGAGGGAGGGAAGGGGAGCAAGCAAAUCCAGGUCUUUUCUUGUACCAGUGGAACCUGCUC | 3.13
CUAUAGUAUACAGUAGGUUAAGACUCAUGUCUAUGACUUUCACUCUAAGACUGGCAAAAGGACAGCAGUCUUCUAUGUUUAGUCAAUAUUCAUUUCAGUAGAAGAUAAUC | 0.385
GCCUUUAAUAUGAUAUAGGAAGGCAGAUACAUUGAUAUCACUUGUAGAACUACUUUGGAAUUUAUCUCCAUUUUCCACAAAAAGAAGCUUCUUUGAUGAAGGAGGAGAGA | 0.252
CCCCAUUUUACCAGAACCAAACCUCAACACAGCGAAGCUGUACUGUCUUUGUGUGGCAAAGAUGUUCCCUUGUAGGCCCCUUUCAGGUAACCGUCUUCACAAUGUAUUUU | 0.3
CAAGUAAUGACACACUACUAUUAUUAUUACCUAAGUAGUGCUCAUCCUCUCUUUCUGUGUUUUCUUAGGAUGUGCACUUUAAUUUAGGAUUGUAACGCCUAAUAAUAUUU | 0.446
GAUCCUGGCAUCUAUUUAUGCAACUAAAUACUUUUCAGAAAUGGUAUAUAAAAGGCUACAGUUUAAUAUCUGUAUUUUUAUAAAAGUAUGAUGAAGGGUUUGGGGUGUUU | 0.711

Some of these lines once more (sample 4):
target | lacZ reporter activity
BIRC6 UBC core domain (UniProt Q9NR09) | 0
UBE2J2 UBC core domain (UniProt Q8N2K1) | 2160
UBE2L3 UBC core domain (UniProt P68036) | 0
UBE2Z UBC core domain (UniProt Q9H832) | 3210
UBE2I UBC core domain (UniProt P63279) | 0
UBE2S UBC core domain (UniProt Q16763) | 0
UBE2M UBC core domain (UniProt P61081) | 0
UBE2G1 UBC core domain (UniProt P62253) | 0
UBE2E3 UBC core domain (UniProt Q969T4) | 0
UBE2C UBC core domain (UniProt O00762) | 0
UBE2D1 UBC core domain (UniProt P51668) | 0
UBE2O UBC core domain (UniProt Q9C0C9) | 0
UBE2T UBC core domain (UniProt Q9NPD8) | 0
UBE2Q1 UBC core domain (UniProt Q7Z7E8) | 0
UBE2R2 UBC core domain (UniProt Q712K3) | 0
UBE2B UBC core domain (UniProt P63146) | 0
